Measurements pooled from the literature.
Compare with care: the assays were run in different laboratories. Numbers after ± are the reported error. Converted amounts (≈) assume the structure as drawn.

| Compound | target or system | assay | test system | conditions | how to read | endpoint | value |
| --- | --- | --- | --- | --- | --- | --- | --- |
| CC[C@@H](C)[C@@H](NC(=O)[C@@H](C)NC(=O)[C@@H](CCCCN)NC(=O)[C@@H](CC(C)C)NC(=O)[C@@H](C)NC(=O)[C@H](NC(=O)[C@@H](Cc1c[nH]cn1)NC(=O)[C@@H](CC(C)C)NC(=O)[C@H](NC(=O)[C@H](NC(=O)[C@@H](CCCCN)NC(=O)[C@@H](CCCCN)NC(=O)[C@@H](C)NC(=O)[C@@H](CO)NC(=O)[C@@H](CCCCN)NC(=O)[C@@H](Cc1ccccc1)NC(=O)[C@H](NC(=O)[C@@H](CCCCN)NC(=O)[C@@H](CC(C)C)NC(=O)[C@@H](Cc1ccccc1)NC(=O)[C@@H](CO)NC(=O)[C@@H](CCCCN)NC(=O)[C@@H](Cc1c[nH]c2ccccc12)NC(=O)[C@@H](CCCCN)NC(C)=O)[C@H](C)O)[C@H](C)O)C(C)C)[C@H](C)O)C(=O)N[C@H](CO)C(=O)N[C@H](CO)C(N)=O | Acinetobacter baumannii | – | 689, Mueller-Hinton broth | 24 h, 37 °C | – | MIC | 0.8 µM |
| CCCCCCCCCCCCC(=O)O.O=C1CCCC2C3CCCN4CCCC(CN12)C34 (centres unmarked) | Cutibacterium acnes | bacterial growth, broth dilution | ATCC 6919 | – | – | MIC | inactive |
| C[C@@H](c1ccn(Cc2ccc(Cl)c(Cl)c2)n1)[C@](O)(Cn1cnnn1)c1ccc(F)cc1F | Candidozyma auris | growth | 791 drug-resistant isolate | 24 h, 30 °C, ≥50% inhibition | – | MIC | 8 µg/mL |
| [O-][N+]1=C(c2ccccc2)C2=NCCCN2c2ncccc21 | Cutibacterium acnes | microbial growth | – | – | – | MIC | 16 µg/mL |
| CN[C@@H]1[C@H](O)[C@H](NC)[C@H]2O[C@]3(O)[C@H](O[C@@H]2[C@H]1O)O[C@H](C)C[C@@]3(O)CNCc1ccc(OC(F)(F)F)cc1 | Streptococcus pneumoniae | – | R6 drug sensitive | – | – | MIC | 3 µg/mL |
| C=C(NC(=O)C(=C)NC(=O)c1csc(C2=NC3c4csc(n4)C4NC(=O)c5csc(n5)C(C(C)(O)C(C)O)NC(=O)C5CSC(=N5)C(=CC)NC(=O)C(C(C)O)NC(=O)c5csc(n5)C3(CC2)NC(=O)C(C)NC(=O)C(=C)NC(=O)C(=C)NC(=O)C(C(C)CC)NC2C=Cc3c(C(C)O)cc(nc3C2O)C(=O)OC4C)n1)C(N)=O (centres unmarked) | Bacillus sp. | broth microdilution | ATCC 27859 | 18 h, 37 °C | – | MIC | 0.042 µg/mL |
| CC1C(=NNC(=O)c2ccncc2)C(C)C(c2ccc(Br)cc2)OC1c1ccc(Br)cc1 (centres unmarked) | Rhizopus | – | – | 72 to 96 h | – | MIC | 100 µg/mL |
| CC[C@H](C)[C@H](NC(=O)[C@@H](N)C(C)C)C(=O)N[C@@H](Cc1c[nH]cn1)C(=O)N[C@@H](CCCNC(=N)N)C(=O)N[C@@H](C)C(=O)NCC(=O)N[C@@H](CC(C)C)C(=O)N[C@@H](CCC(N)=O)C(=O)N[C@@H](Cc1ccccc1)C(=O)N1CCC[C@H]1C(=O)N[C@H](C(=O)NCC(=O)N[C@@H](CCCNC(=N)N)C(=O)N[C@H](C(=O)N[C@@H](Cc1c[nH]cn1)C(=O)N[C@@H](CCCNC(=N)N)C(=O)N[C@@H](CC(C)C)C(=O)N[C@@H](CC(C)C)C(=O)N[C@@H](CCCNC(=N)N)C(=O)N[C@@H](CCCCN)C(N)=O)C(C)C)C(C)C | Enterobacter aerogenes | – | ATCC 13048 | 18 to 20 h | – | MIC | > 32 µM |
| CC[C@H](C)[C@H](NC(=O)[C@H](CCCCN)NC(=O)[C@H](CC(N)=O)NC(=O)[C@H](Cc1c[nH]c2ccccc12)NC(=O)[C@H](Cc1ccccc1)NC(=O)[C@H](CCCCN)NC(=O)[C@H](CCCNC(=N)N)NC(=O)[C@H](CC(C)C)NC(=O)[C@H](Cc1c[nH]c2ccccc12)NC(=O)[C@H](CCCCN)NC(=O)[C@H](CCCNC(=N)N)NC(=O)[C@H](CC(C)C)NC(=O)CNC(C)=O)C(=O)N[C@@H](CCCCN)C(=O)N[C@@H](CCCNC(=N)N)C(N)=O | Enterobacter aerogenes | broth microdilution | multidrug-resistant | – | – | MIC | 6.25 µM |
| C[N+]1=C2C(c3ccccc3)=[N+]([O-])c3ccccc3N2CCC1 | Clostridioides difficile | microbial growth | ATCC43255 | – | – | MIC | 32 µg/mL |
| CN[C@](C)(C[18F])C(=O)O | SK-OV-3 tumour model | – | host not given, bone | 1 h, tumour-bearing | – | tracer uptake | 2.3 %ID/g |
| C[C@@H](c1ccn(Cc2ccc(I)cc2)n1)[C@](O)(Cn1cnnn1)c1ccc(F)cc1F | Candidozyma auris | growth | 888 drug-resistant isolate | 24 h, 30 °C, ≥50% inhibition | – | MIC | 4 µg/mL |
| C=CCCC[C@@H]1NC(=O)[C@H](CC(C)C)NC(=O)[C@H](C)NC(=O)[C@H](NC(=O)[C@H](CO)NC(=O)[C@@H](CCCCN)NC(=O)[C@@H](CCCC=C)NC(=O)[C@@H](N)Cc2ccccc2)[C@H](C)OC1=O | Bacillus subtilis Staphylococcus epidermidis | – | ATCC 14990 | tested as TFA salt | – | MIC | 2 µg/mL |
| CC[C@H](C)[C@H](NC(=O)CNC(=O)[C@H](CCCCN)NC(=O)[C@H](C)NC(=O)[C@H](CCC(=O)O)NC(=O)[C@H](Cc1ccccc1)NC(=O)[C@H](CO)NC(=O)[C@H](CC(C)C)NC(=O)[C@@H](NC(=O)[C@H](CC(=O)O)NC(=O)[C@H](C)NC(=O)[C@@H](NC(=O)[C@@H](N)C(C)C)[C@@H](C)O)C(C)C)C(=O)N[C@@H](C)C(=O)N[C@H](C(=O)N[C@@H](CC(N)=O)C(=O)N[C@@H](Cc1c[nH]cn1)C(=O)N[C@@H](CO)C(=O)N[C@@H](C)C(=O)N[C@H]1CSSC[C@@H]2NC(=O)[C@H](C(C)C)NC(=O)CNC(=O)[C@H](CC(N)=O)NC(=O)[C@H](CCC(N)=O)NC(=O)[C@H](C)NC(=O)[C@H](CO)NC(=O)CNC(=O)CNC(=O)[C@H](CCCCN)NC(=O)[C@H](CCCCN)NC(=O)[C@H](CCCNC(=N)N)NC(=O)[C@H](CC(C)C)NC(=O)[C@H](C)NC(=O)[C@H]([C@@H](C)CC)NC(=O)[C@H](CSSC[C@@H](C(=O)N[C@@H](CCCNC(=N)N)C(=O)N[C@@H](CC(N)=O)C(=O)O)NC(=O)[C@H](C(C)C)NC2=O)NC(=O)[C@H](Cc2c[nH]cn2)NC(=O)[C@H](CC(C)C)NC(=O)[C@H](C)NC1=O)C(C)C | Trichosporon beigelii | broth microdilution | KCTC 7707 | 28 °C | – | MIC | 25 µM |
| COc1ccc(C2=[N+]([O-])c3ccccc3N3CCCN=C23)cc1 | Clostridium sporogenes | microbial growth | ATCC3584 | – | – | MIC | 1 µg/mL |
| CC(C)[C@H](NC(=O)[C@H]1NC(=O)[C@H](CO)NC(=O)[C@H](CC(N)=O)NC(=O)[C@@H](N)Cc2c[nH]c3cc(ccc23)C1C(N)=O)C(=O)N[C@H]1Cc2cn(cn2)C(c2ccc(O)cc2)[C@@H](C(=O)N[C@@H](CCCNC(=N)N)C(=O)N[C@@H](Cc2ccccc2)C(=O)O)NC(=O)[C@H](CO)NC1=O (some centres unmarked) | Photorhabdus australis | – | DSM 17609 | – | – | MIC | > 128 µg/mL |
| CC[C@H](C)[C@H](NC(=O)[C@@H](Cc1ccccc1)NC)C(=O)N[C@@H](CO)C(=O)N[C@H](CCC(N)=O)C(=O)N[C@@H](C(=O)N[C@H](C(=O)N[C@@H](CO)C(=O)N[C@H]1C(=O)N[C@@H](C)C(=O)N[C@@H](C2CCCCC2)C(=O)N[C@@H]([C@@H](C)CC)C(=O)O[C@H]1C)[C@@H](C)CC)[C@@H](C)CC | Gram-positive bacteria | – | 0.002% polysorbate 80 | range over five species | – | MIC | 0.125 to 1 µg/mL |
| C[N+]1=C2C(c3ccc([N+](=O)[O-])cc3)=[N+]([O-])c3ccccc3N2CCC1 | Cutibacterium acnes | microbial growth | – | – | – | MIC | > 16 µg/mL |
| CCCCCCCCC(=O)NCc1ccc(O)c(OC)c1 | mouse mAb 1-D6 | antibody binding, indirect competitive ELISA | – | added: coating antigen 6-OVA | – | IC50 | 0.153 µg/mL (≈ 0.52 µM) |
| CN[C@@H]1[C@H](O)[C@H](NC)[C@H]2O[C@]3(O)[C@H](O[C@@H]2[C@H]1O)O[C@H](C)C[C@@]3(O)CNCc1ccc(F)cc1 | Streptococcus pneumoniae | – | resistant mutants, RpsE G27R | – | – | MIC | > 200 µg/mL |
| CC[C@H](C)[C@H](NC(=O)[C@H](CCCN)NC(=O)[C@H](CC(N)=O)NC(=O)[C@H](CC(C)C)NC(=O)[C@H](Cc1ccccc1)NC(=O)[C@H](CCCN)NC(=O)[C@H](CCCNC(=N)N)NC(=O)[C@H](CC(C)C)NC(=O)[C@H](CC(C)C)NC(=O)[C@H](CCCN)NC(=O)[C@H](CCCNC(=N)N)NC(=O)[C@H](CC(C)C)NC(=O)CNC(C)=O)C(=O)N[C@@H](CCCN)C(=O)N[C@@H](CCCNC(=N)N)C(N)=O | Citrobacter freundii | bacterial growth, broth microdilution | multidrug-resistant | – | – | MIC | 3.12 µM |
| CC[C@H](C)[C@H](NC(=O)[C@H](C)NC(=O)CNC(=O)[C@@H](N)CCSC)C(=O)N[C@@H](C)C(=O)N[C@@H](CCCCN)C(=O)N[C@@H](CC(C)C)C(=O)N[C@H](C(=O)N[C@@H](C)C(=O)N[C@@H](CCCCN)C(=O)N[C@@H](Cc1ccccc1)C(=O)NCC(=O)N[C@@H](Cc1c[nH]c2ccccc12)C(=O)N1CCC[C@H]1C(=O)N[C@@H](CCCNC(=N)N)C(=O)N[C@H](C(=O)N[C@@H](CCCCN)C(=O)N[C@@H](CCCCN)C(=O)N[C@@H](Cc1ccccc1)C(=O)N[C@@H](Cc1ccc(O)cc1)C(=O)N[C@@H](CCCCN)C(=O)N[C@@H](CCC(N)=O)C(=O)N[C@H](C(=O)N[C@@H](CCSC)C(=O)N[C@@H](CCC(N)=O)C(=O)N[C@@H](Cc1ccccc1)C(=O)N[C@H](C(=O)NCC(=O)N[C@@H](CCC(N)=O)C(=O)NCC(=O)N[C@@H](Cc1c[nH]c2ccccc12)C(=O)N[C@H](C(=O)N[C@H](C(=O)N[C@@H](CC(=O)O)C(=O)N[C@@H](CCC(N)=O)C(=O)N[C@H](C(=O)N[C@@H](CCC(=O)O)C(=O)N[C@@H](CCCCN)C(=O)N[C@@H](Cc1c[nH]c2ccccc12)C(=O)N[C@@H](CC(C)C)C(=O)N[C@@H](CCCCN)C(=O)N[C@@H](CCCNC(=N)N)C(=O)N[C@@H](Cc1c[nH]cn1)C(=O)O)[C@@H](C)CC)[C@@H](C)CC)[C@@H](C)O)[C@@H](C)CC)[C@@H](C)CC)[C@@H](C)CC)C(C)C | Bacillus subtilis subsp. subtilis | – | ATCC 23857 | 10 h | – | MIC | 10.9 ± 0.1 µM |
| CC(C)(C)c1ccc(COc2cc3c(=O)c(C(=O)NCCNCCO)cn(Cc4ccccc4)c3cc2Cl)cc1 | Cryptococcus neoformans | – | ATCC 208821 | – | ≥80% growth inhibition | MIC | < 0.25 µg/mL |
| [O-][N+]1=C(c2ccc(Cl)cc2)C2=NCCCCN2c2ccccc21 | Clostridium sporogenes | microbial growth | ATCC3584 | – | – | MIC | 1 µg/mL |
| C[C@@H](c1ccn(Cc2ccc(Cl)cc2Cl)n1)[C@](O)(Cn1cnnn1)c1ccc(F)cc1F | Candidozyma auris | microbial growth | 887 | 24 h, drug-resistant strain, clinical isolate | – | MIC | 64 µg/mL |
| CC[C@H](C)[C@H](NC(=O)[C@H](CO)NC(=O)[C@H](CO)NC(=O)[C@H](Cc1ccccc1)NC(=O)CN)C(=O)N[C@@H](Cc1ccccc1)C(=O)N[C@@H](CCCNC(=N)N)C(N)=O | Escherichia coli | – | ATCC 8739 | 10% FBS | – | MIC | > 128 µM |

A few entries again:
| Compound | target or system | assay | test system | conditions | how to read | endpoint | value |
| --- | --- | --- | --- | --- | --- | --- | --- |
| CC1C(=NNC(=O)c2ccncc2)C(C)C(c2ccc(Br)cc2)OC1c1ccc(Br)cc1 (centres unmarked) | Rhizopus | – | – | 72 to 96 h | – | MIC | 100 µg/mL |
| C=C(NC(=O)C(=C)NC(=O)c1csc(C2=NC3c4csc(n4)C4NC(=O)c5csc(n5)C(C(C)(O)C(C)O)NC(=O)C5CSC(=N5)C(=CC)NC(=O)C(C(C)O)NC(=O)c5csc(n5)C3(CC2)NC(=O)C(C)NC(=O)C(=C)NC(=O)C(=C)NC(=O)C(C(C)CC)NC2C=Cc3c(C(C)O)cc(nc3C2O)C(=O)OC4C)n1)C(N)=O (centres unmarked) | Bacillus sp. | broth microdilution | ATCC 27859 | 18 h, 37 °C | – | MIC | 0.042 µg/mL |
